Measurements of several laboratories.
Each line is one published result; not all experiments were run side by side. “And” joins repeats or separate records; there may be more than shown. Numbers after ± are the reported error.
Target: Melanocyte-stimulating hormone receptor (Mc1r, Mus musculus, UniProt Q01727)
Sequence of UniProt Q01727 (whole entry, looked up): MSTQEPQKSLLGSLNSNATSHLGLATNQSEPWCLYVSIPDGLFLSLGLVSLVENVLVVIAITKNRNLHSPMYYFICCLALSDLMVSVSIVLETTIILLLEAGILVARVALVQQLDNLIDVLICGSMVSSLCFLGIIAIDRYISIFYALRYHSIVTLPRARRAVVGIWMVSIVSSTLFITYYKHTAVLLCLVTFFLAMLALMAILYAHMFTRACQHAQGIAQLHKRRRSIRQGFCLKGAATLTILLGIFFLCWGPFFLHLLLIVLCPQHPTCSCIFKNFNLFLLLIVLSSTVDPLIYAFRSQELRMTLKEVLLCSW

| SMILES | read-out | action | technique | endpoint | result |
| --- | --- | --- | --- | --- | --- |
| C#CC[C@H](NC(=O)[C@H](Cc1ccccc1)NC(=O)[C@H](C)NC(=O)[C@H](CC(N)=O)NC(=O)[C@H](Cc1c[nH]c2ccccc12)NC(=O)[C@H](CCCNC(=N)N)NC(=O)[C@@H](Cc1ccccc1)NC(=O)[C@H](Cc1c[nH]cn1)NC(=O)[C@H](CN=[N+]=[N-])NC(=O)[C@@H](N)Cc1ccc(O)cc1)C(=O)N[C@@H](Cc1ccc(O)cc1)C(N)=O | – | agonist | – | EC50 | 58 ± 6.3 nM |
| CC(C)[C@H](NC(=O)[C@@H]1CCCN1C(=O)[C@H](CCCNC(=N)N)NC(=O)[C@H](CS)NC(=O)[C@H](Cc1c[nH]c2ccccc12)NC(=O)[C@H](CCCNC(=N)N)NC(=O)[C@@H](Cc1ccccc1)NC(=O)[C@H](Cc1c[nH]cn1)NC(=O)[C@H](CCC(=O)O)NC(=O)[C@H](CS)NC(=O)[C@H](CS)NC(=O)[C@@H]1CC(=O)N[C@@H](CCCNC(=N)N)C(=O)NCC(=O)N[C@@H](CC(=O)O)C(=O)N[C@H](Cc2ccc(O)cc2)C(=O)N1)C(N)=O | ligand displacement | – | radioligand | IC50 | 1 nM |
| C[C@@H]1NC(=O)[C@H](CC(N)=O)NC(=O)[C@H](Cc2c[nH]c3ccccc23)NC(=O)[C@H](CCCNC(=N)N)NC(=O)[C@@H](Cc2ccccc2)NC(=O)[C@H](Cc2c[nH]cn2)NC(=O)[C@@H](NC(=O)[C@@H](N)Cc2ccc(O)cc2)Cn2cc(nn2)C[C@@H](C(=O)N[C@@H](Cc2ccc(O)cc2)C(N)=O)NC(=O)[C@H](Cc2ccccc2)NC1=O | – | agonist | – | EC50 | 5.8 ± 2 nM |
| CC(C)[C@H](NC(=O)[C@@H]1CCCN1C(=O)[C@H](CCCNC(=N)N)NC(=O)[C@H](CS)NC(=O)[C@H](Cc1c[nH]c2ccccc12)NC(=O)[C@H](CCCNC(=N)N)NC(=O)[C@@H](Cc1ccccc1)NC(=O)[C@H](Cc1c[nH]cn1)NC(=O)[C@H](CCC(=O)O)NC(=O)[C@H](CS)NC(=O)[C@H](CS)NC(=O)CCCCCNC(=O)[C@@H]1CC(=O)N[C@@H](CCCNC(=N)N)C(=O)NCC(=O)N[C@@H](CC(=O)O)C(=O)N[C@H](Cc2ccc(O)cc2)C(=O)N1)C(N)=O | ligand displacement | – | radioligand | IC50 | 1.3 nM |
| CCCC[C@H](NC(=O)CNC(=O)CNC(=O)c1ccc(NN)nc1)C(=O)N[C@H]1CC(=O)NCCCC[C@@H](C(N)=O)NC(=O)[C@H](Cc2c[nH]c3ccccc23)NC(=O)[C@H](CCCNC(=N)N)NC(=O)[C@@H](Cc2ccccc2)NC(=O)[C@H](Cc2c[nH]cn2)NC1=O | ligand displacement | – | radioligand | IC50 | 0.6 nM |
| CCCC[C@H](NC(=O)CNC(=O)CNC(=O)CN1CCN(CC(=O)O)CCN(CC(=O)O)CC1)C(=O)N[C@H]1CC(=O)NCCCC[C@@H](C(N)=O)NC(=O)[C@H](Cc2c[nH]c3ccccc23)NC(=O)[C@H](CCCNC(=N)N)NC(=O)[C@@H](Cc2ccccc2)NC(=O)[C@H](Cc2c[nH]cn2)NC1=O | ligand displacement | – | radioligand | IC50 | 1.6 nM |
| CCCC[C@@H]1NC(=O)[C@@H](NC(=O)[C@H](CCC(=O)O)NC(=O)CNC(=O)CN2CCN(CC(=O)O)CCN(CC(=O)O)CCN(CC(=O)O)CC2)CCCCNC(=O)C[C@@H](C(N)=O)NC(=O)[C@H](C(C)C)NC(=O)[C@@H]2CCCN2C(=O)[C@H](CCCNC(=N)N)NC(=O)CNC(=O)[C@H](Cc2c[nH]c3ccccc23)NC(=O)[C@H](CCCNC(=N)N)NC(=O)[C@@H](Cc2ccccc2)NC(=O)[C@H](Cc2c[nH]cn2)NC(=O)[C@H](CCC(=O)O)NC1=O | ligand displacement | – | radioligand | IC50 | 2.43 nM |
| CCCC[C@H](NC(=O)CNC(=O)CNC(=O)CNC(=O)c1ccc(NN)nc1)C(=O)N[C@H]1CC(=O)NCCCC[C@@H](C(N)=O)NC(=O)[C@H](Cc2c[nH]c3ccccc23)NC(=O)[C@H](CCCNC(=N)N)NC(=O)[C@@H](Cc2ccccc2)NC(=O)[C@H](Cc2c[nH]cn2)NC1=O | ligand displacement | – | radioligand | IC50 | 0.8 nM and 0.7 nM |

A few entries again:
| SMILES | read-out | action | technique | endpoint | result |
| --- | --- | --- | --- | --- | --- |
| CCCC[C@H](NC(=O)CNC(=O)CNC(=O)CNC(=O)c1ccc(NN)nc1)C(=O)N[C@H]1CC(=O)NCCCC[C@@H](C(N)=O)NC(=O)[C@H](Cc2c[nH]c3ccccc23)NC(=O)[C@H](CCCNC(=N)N)NC(=O)[C@@H](Cc2ccccc2)NC(=O)[C@H](Cc2c[nH]cn2)NC1=O | ligand displacement | – | radioligand | IC50 | 0.8 nM and 0.7 nM |
